Assay results gathered from unrelated publications.
Protocols differ between the studies behind these lines. ± gives the spread as reported. Values after ≈ are worked out from the molar mass of the structure shown.
UniProt O60656, sequence (whole entry, looked up): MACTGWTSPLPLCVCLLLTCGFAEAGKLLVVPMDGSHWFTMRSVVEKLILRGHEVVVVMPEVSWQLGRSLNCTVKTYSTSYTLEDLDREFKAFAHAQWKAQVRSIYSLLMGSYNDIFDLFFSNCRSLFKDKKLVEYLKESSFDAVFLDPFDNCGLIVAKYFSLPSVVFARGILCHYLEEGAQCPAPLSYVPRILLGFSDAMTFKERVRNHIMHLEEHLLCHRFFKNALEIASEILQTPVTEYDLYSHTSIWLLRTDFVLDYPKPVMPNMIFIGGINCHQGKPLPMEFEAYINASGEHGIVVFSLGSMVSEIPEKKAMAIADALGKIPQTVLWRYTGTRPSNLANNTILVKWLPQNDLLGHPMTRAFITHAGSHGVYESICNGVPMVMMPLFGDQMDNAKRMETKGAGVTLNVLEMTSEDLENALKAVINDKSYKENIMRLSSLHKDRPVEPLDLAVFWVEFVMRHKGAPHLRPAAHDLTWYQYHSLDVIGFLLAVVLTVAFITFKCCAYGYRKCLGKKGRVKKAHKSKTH

Substance	tested on	test	system	conditions	how to read	quantity	value
CN(C)C(=O)c1cc2cnc(Nc3ccc(N4CCS(=N)(=O)CC4)cn3)nc2n1C1CCCC1		shake flask	water	pH 6.5		thermodynamic solubility	22 µg/mL (≈ 45.6 µM)
CNc1nc(Nc2ccc(-n3cnc(C)n3)c(OC)c2)nc2c1CC[C@H]2c1ccc(F)cc1			human, plasma	oral, 1200 mg, single dose, healthy volunteers		Tmax	4 h
Cn1c(-c2ccc(C(N)=O)cc2F)nnc1C(C)(C)Oc1c(F)cc(Cl)cc1F			young Japanese adults, plasma	oral, 20 mg single dose, day 1, high-dose multiple-dose study		half-life range over subjects	12 to 25.5 h
CC(C)NCCCn1c(Sc2cc3c(cc2I)OCO3)nc2c(N)ncnc21		measured: free drug	human	intravenous infusion, 40 mg/m^2, day 1	baseline: dose	urinary excretion	1.9%
Cc1c(Cl)cccc1Nc1ccccc1C(=O)O		shake-flask	polysorbate 80	37 °C		thermodynamic solubility	57.3 ± 7.05 mg/g
CCCCC/C=C/C(=O)CCc1ccc(O)c(OC)c1			rat, small intestine site 4 contents	oral, dose not given, 4 h, no β-glucuronidase treatment	baseline: ingested amount	recovery	0.46%
COc1c(OCCCN2CCOCC2)ccc2c1N=C(NC(=O)c1cnc(N)nc1)N1CCN=C21			human patients, plasma	intravenous, 0.4 mg/kg 3 weeks on 1 week off, cycle 1 day 1		AUC(0-25 h)	693 ng·h/mL
UGT1A9 (Homo sapiens, UniProt O60656)	O=c1c(O)c(-c2ccc(O)c(O)c2)oc2ccccc12	steady-state kinetics		pH 7.4, 37 °C		Vmax/Km	22000 µL/min/mg
CS(=O)(=O)OC[C@H](O)[C@@H]1CO1			Wistar rat, female, red blood cell lysate	intraperitoneal, 500 mg/kg of treosulfan, 4 h		concentration	3100 nM
Oc1c(Br)cc(Cl)c2cccnc12			male Sprague-Dawley rats, kidney	intravenous, 5 mg/kg, 2 h		concentration	406 ± 77.1 ng/g
CCC(C)n1ncn(-c2ccc(N3CCN(c4ccc(OCC5COC(Cn6cncn6)(c6ccc(Cl)cc6Cl)O5)cc4)CC3)cc2)c1=O (stereo not drawn)		shake-flask	Captex 355	37 °C		thermodynamic solubility	0.18 mg/g
C[C@H](Oc1ccc(-c2nc(-c3ccc4[nH]cnc4c3)no2)cc1C(F)(F)F)C(F)(F)F			cynomolgus monkey, aneurysm model, plasma	0.1 mg/kg once daily, 2 h post-dose, 4 weeks dosing		plasma concentration	17 ± 4.7 nM
IDKQLE		substrate, gel electrophoresis	peptide, mouse, PyMT tumour, PyMT tumour tissue extract	5 µM, 16 h, 37 °C, 2% extract, 1 mM ZnCl2		peptide cleavage	< 5%
CC(C)(Oc1ccc(C(=O)c2ccc(Cl)cc2)cc1)C(=O)O		shake-flask	soybean oil	37 °C		thermodynamic solubility	0.8 ± 0.05 mg/g
CN[C@H](CC(C)C)C(=O)N[C@H]1C(=O)N[C@@H](CC(N)=O)C(=O)N[C@H]2C(=O)N[C@H]3C(=O)N[C@H](C(=O)N[C@H](C(=O)O)c4cc(O)cc(O)c4-c4cc3ccc4O)[C@H](O)c3ccc(c(Cl)c3)Oc3cc2cc(c3O[C@@H]2O[C@H](CO)[C@@H](O)[C@H](O)[C@H]2O[C@H]2C[C@](C)(N)[C@H](O)[C@H](C)O2)Oc2ccc(cc2Cl)[C@H]1O			pig, Danish Landrace, plasma	intravenous, 1000 mg over 100 min, 450 min dosing interval, with: 2.0 µg/mL MIC	baseline: dosing interval	time above MIC	100%
C[C@H]1Oc2cc(cnc2N)-c2c(nn(C)c2C#N)CN(C)C(=O)c2ccc(F)cc21			human (NSCLC and healthy)	oral and intravenous, 100 mg, bootstrap mean		initial clearance	151 mL/min
CNCc1ccc(-c2[nH]c3cc(F)cc4c3c2CCNC4=O)cc1			human patients, plasma	oral, 240 mg twice daily, day 1, 12 h, arithmetic mean		AUC(0-t)	2800 ng·h/mL
N=C(N)NC(=O)c1cnn(-c2cccc3ncccc23)c1C1CC1			Sprague-Dawley rat male, hepatic S9	1 µM, pH 7.4, with: without NADPH		CLint	357 ± 25.1 mL/min/kg

Substance	tested on	test	system	conditions	how to read	quantity	value
Cc1cc(Nc2cc3ncccc3c(N[C@@H]3C[C@H]4CC[C@@H](C3)N4CCC#N)n2)n[nH]1			dog, male, plasma	oral, 100 mg/kg/day, week 28 day 197, 39-week repeat dose	mean	AUC(0-24 h)	1670 ng·h/mL
Cc1cc(Nc2ncc(Cl)c(Nc3ccccc3S(=O)(=O)C(C)C)n2)c(OC(C)C)cc1C1CCNCC1		measured: unbound drug	human, plasma	oral, 750 mg/day fasted, after daily dose 9		AUC(tau) at steady state	0.602 µM·h
CS(=O)(=O)Nc1ccc(C(=O)O[C@@H](Cc2c(Cl)c[n+]([O-])cc2Cl)c2ccc(OC(F)F)c(OCC3CC3)c2)cc1OCC1CC1			human, plasma	inhaled, 1200 µg once daily, day 1, single-dose dry powder inhaler		tmax	2.1 h
C[C@H](CS)C(=O)N1CCC[C@H]1C(=O)O			male Hartley guinea pig, anaesthetized	intravenous infusion, 3 mg/kg, 10 min infusion	baseline: baseline	QTc change	0 ± 0.9%
Nc1ncn([C@H]2C[C@H](O)[C@@H](CO)O2)c(=O)n1			male CD-1 mice, plasma	oral, 167 mg/kg THU + 0.2 mg/kg, day 1		AUC(0-180)	1.43 µM·h
CCN(CC)C(=S)SSC(=S)N(CC)CC		shake-flask	soybean oil	37 °C		thermodynamic solubility	21.4 ± 1.07 mg/g
COc1cnc(C(=O)Nc2ccc(F)c([C@]34CN(c5ncc(F)cn5)C[C@H]3CSC(N)=N4)c2)cn1			PDAPP mice, brain	oral, 0.3 mg/kg, 3 h		brain concentration	28.1 nM
CC(C)NCC(O)COc1cccc2ccccc12 (stereo not drawn)			male Hartley guinea pig, anaesthetized	intravenous infusion, 0.3 mg/kg, 10 min infusion	baseline: baseline	QTc change	-1.6 ± 1.2%
CCn1c2ccccc2c2cc(-n3nncc3-c3ccccc3)ccc21			female BALB/c mouse, kidney	oral, 10 mg/kg, single dose		Tmax	0.5 h
O=S(=O)(O)Oc1c[nH]c2ccccc12			human hemodialysis patients, plasma	pre-treatment	baseline: hemodialysis over normal subjects	total plasma concentration ratio	26
acyl ghrelin (human)			wild-type mice, whole brain	intravenous, dose not given, 10 min, vascular space corrected		tissue/serum ratio	6.45 µL/g
O=C(CCc1ccccc1)c1ccccc1OCC(O)CN1CCC(c2ccccc2)CC1 (stereo not drawn)		metabolic stability	female mouse, liver microsomes	20 µM, pH 7.4		scaled CLint	29.3 mL/min/kg
CC(=O)O[C@@]12CO[C@@H]1C[C@H](O)[C@@]1(C)C(=O)[C@H](O)C3=C(C)[C@@H](OC(=O)[C@H](O)[C@@H](NC(=O)OC(C)(C)C)c4ccccc4)C[C@@](O)([C@@H](OC(=O)c4ccccc4)[C@H]21)C3(C)C			male Sprague-Dawley rat, plasma	intravenous, 10 mg/kg		clearance	71.7 mL/min/kg
CC(C)=CCc1c(O)c(CC=C(C)C)c2oc3c(O)ccc(O)c3c(=O)c2c1O			Balb/c nu/nu mice, HT-29 xenograft, tumour tissue	oral, 901 mg/kg xanthones in diet, 2 weeks after implantation		free tumour concentration	110 ± 50 ng/g
C[C@@H](Oc1ccc(S(C)(=O)=O)cc1C(=O)N1C[C@@H]2C[C@]2(c2cc(C(F)(F)F)on2)C1)C(F)(F)F			healthy men	oral, dose not given, 14 days	baseline: subjects	drug-related adverse events	4%
Cn1cc(-c2ccc(S(=O)(=O)[C@@H]3C[C@@H](C(=O)NC4(C#N)CC4)N(C(=O)C4(C(F)(F)F)CC4)C3)c(C(F)(F)F)c2)cn1			human	oral, fed state	baseline: 10 mg fasted	relative bioavailability	18%
O=C(Nc1ccc([N+](=O)[O-])cc1Cl)c1cc(Cl)ccc1O		shake-flask	soybean oil	37 °C		thermodynamic solubility	1.38 ± 0.11 mg/g
CS/C(S)=N/CCCC[S+](C)[O-] (racemic)		RT-PCR, measured: Cyp3a23/1	rat, colon	oral gavage, 200 mg/kg, dosed for four days	baseline: vehicle	mRNA fold change	0.121
